Published values of several laboratories.
Each numbered part is a random draw from the data of one study; scales do not carry over between parts.

Block 1
Target: Histone acetyltransferase KAT6A, winged helix 1, GST fusion (KAT6A, Homo sapiens, UniProt Q92794, residues 1-85)
Method: protein binding microarray
Molecule type: double-stranded DNA, one strand shown
Medium: in vitro
Tested at: not given
Setting: 8-mer, flanks averaged, mean of 2 arrays, mostly near background
Reference: not given
Reading: higher = stronger binding
Construct (chain): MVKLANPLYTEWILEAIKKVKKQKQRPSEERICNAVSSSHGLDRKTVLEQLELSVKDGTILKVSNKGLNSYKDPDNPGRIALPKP
The E-score of `ATTCCCAA` is reported as -0.271.
The E-score of `ATTTGTAA` is reported as -0.203.
`CCAAAACC` gave an E-score of -0.0569.
With `GTAGACAC` the E-score was 0.034.
The E-score of `ACCCTTGG` is reported as -0.192.
`CTATCCCC` has an E-score of -0.111.

Block 2
Target: Phosphate system positive regulatory protein PHO4, full length, GST-tagged (PHO4, Saccharomyces cerevisiae, UniProt P07270, residues 1-312)
Method: competition protein-binding microarray
Molecule type: double-stranded DNA, one strand shown
Medium: in vitro
Tested at: 2 µM
Setting: whole 60-bp probe, lowest competitor level
With: Cbf1 competitor, 0.05 µM
Reading: higher = stronger binding
Constant ends, left off below: … GTCTTGATTCGCTTGACGCTGCTG
Residues (chain): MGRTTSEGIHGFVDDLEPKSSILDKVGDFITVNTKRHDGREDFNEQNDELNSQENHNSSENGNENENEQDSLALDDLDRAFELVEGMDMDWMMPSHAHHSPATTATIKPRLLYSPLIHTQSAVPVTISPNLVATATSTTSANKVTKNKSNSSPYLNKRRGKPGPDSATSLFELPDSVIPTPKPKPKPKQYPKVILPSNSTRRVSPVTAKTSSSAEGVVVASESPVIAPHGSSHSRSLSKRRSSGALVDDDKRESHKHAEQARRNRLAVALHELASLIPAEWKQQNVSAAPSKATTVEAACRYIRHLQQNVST
`GACCGTCTCTCCCAACACGTGCCAGAGCTTGTTGAT` has a fluorescence intensity of 18800 a.u.
With `TGAATTTTCGCGAGTCACGTCGTAACTCATATGCTT` the fluorescence intensity was 4330 a.u.
`AAAGCGGTAATTTGACCCGTGGGTGCAGATATCTAT` gave a fluorescence intensity of 9700 a.u.
With `TGCGCAACAACTTGCAAAGTGGGTGTATGTCTAGAA` the fluorescence intensity was 4660 a.u.
The fluorescence intensity of `TGTAAATGATGATAACGTAAAAGCACTGTTGATAAT` is reported as 4200 a.u.
For `CATACCCAACCTTTTCACGTGAGGTAAGATATTTGT`, the fluorescence intensity was 12200 a.u.
For `CTAACGAAGGTTTGTCACGGAACTTACAAGCCAAGT`, the fluorescence intensity was 3370 a.u.

Block 3
Target: Sal-like protein 4, full length isoform A (SALL4, Homo sapiens, UniProt Q9UJQ4, residues 1-1053)
Sequence of UniProt Q9UJQ4 (whole entry, looked up): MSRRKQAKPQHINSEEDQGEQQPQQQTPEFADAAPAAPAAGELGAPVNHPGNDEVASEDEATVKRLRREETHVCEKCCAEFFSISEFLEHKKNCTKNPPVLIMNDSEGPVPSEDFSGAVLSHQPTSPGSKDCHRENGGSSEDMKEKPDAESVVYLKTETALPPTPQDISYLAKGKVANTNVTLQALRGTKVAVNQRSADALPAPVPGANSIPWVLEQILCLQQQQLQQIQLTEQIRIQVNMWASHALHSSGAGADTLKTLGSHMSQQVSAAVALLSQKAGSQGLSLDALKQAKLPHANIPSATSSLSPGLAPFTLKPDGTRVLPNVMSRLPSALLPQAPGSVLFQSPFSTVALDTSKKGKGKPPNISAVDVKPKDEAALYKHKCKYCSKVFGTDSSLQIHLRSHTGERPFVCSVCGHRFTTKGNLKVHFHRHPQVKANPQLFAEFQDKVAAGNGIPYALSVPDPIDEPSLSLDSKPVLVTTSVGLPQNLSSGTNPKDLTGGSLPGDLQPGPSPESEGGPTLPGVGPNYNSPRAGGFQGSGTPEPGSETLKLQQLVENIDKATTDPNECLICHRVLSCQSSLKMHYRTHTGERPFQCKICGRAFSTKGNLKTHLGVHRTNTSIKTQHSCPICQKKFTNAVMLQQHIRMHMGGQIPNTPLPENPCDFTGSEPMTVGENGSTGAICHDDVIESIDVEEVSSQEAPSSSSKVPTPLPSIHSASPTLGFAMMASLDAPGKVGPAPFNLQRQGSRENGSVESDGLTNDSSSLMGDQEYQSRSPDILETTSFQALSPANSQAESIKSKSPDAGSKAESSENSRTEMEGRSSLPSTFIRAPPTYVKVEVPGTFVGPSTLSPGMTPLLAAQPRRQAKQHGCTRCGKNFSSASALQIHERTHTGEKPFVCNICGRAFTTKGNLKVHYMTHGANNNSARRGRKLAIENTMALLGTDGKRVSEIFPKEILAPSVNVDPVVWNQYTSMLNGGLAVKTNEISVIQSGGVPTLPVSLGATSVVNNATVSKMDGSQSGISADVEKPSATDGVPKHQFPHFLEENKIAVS
Method: universal PBM
Molecule type: double-stranded DNA, one strand shown
Medium: in vitro
Tested at: 600 nM
Setting: 8-mer, flanks averaged, mean of replicates
Reading: higher = stronger binding
`TAGCGAGA` has an E-score of -0.00467.
`ACCGGATG` gave an E-score of -0.192.
The E-score of `GTGTGATA` is reported as 0.236.
The E-score of `CCTCTGCG` is reported as -0.338.

Further values, each from its own experiment
The fold induction of `PhoQ, residues 284 288 289 292 302 303 ALVSVA` is reported as 2.37 (PhoP, residues 12 14 15 18 19 HLGGL (Escherichia coli, UniProt P23836); Sort-seq, measured: YFP reporter; E. coli; PhoQ-PhoP variant library, with: 10 µM Mg2+; reference: high Mg2+ state, higher = stronger signaling).
